Results from different studies.
Parts stem from different laboratories: compare values within a part only.

Sample 1 — technique: RNA Bind-n-Seq; form: RNA; medium: in vitro; tested at: not given; baseline: input RNA pool; direction: higher = stronger binding
Target: RING finger protein unkempt homolog, zinc fingers 1-6, GST-SBP tag (UNK, Homo sapiens, UniProt Q9C0B0, residues 30-357)
UniProt Q9C0B0, sequence (30-357, looked up): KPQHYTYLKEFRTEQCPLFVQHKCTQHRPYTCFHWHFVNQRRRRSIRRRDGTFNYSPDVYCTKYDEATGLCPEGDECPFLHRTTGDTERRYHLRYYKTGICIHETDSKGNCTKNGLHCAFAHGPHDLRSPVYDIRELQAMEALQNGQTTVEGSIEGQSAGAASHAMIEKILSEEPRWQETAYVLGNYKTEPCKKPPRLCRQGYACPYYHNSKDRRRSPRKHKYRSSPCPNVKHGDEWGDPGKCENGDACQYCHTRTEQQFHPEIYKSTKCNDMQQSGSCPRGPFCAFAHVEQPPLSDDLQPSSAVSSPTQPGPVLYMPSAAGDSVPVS
Notes: RNA with constant flanks, human-mouse chimeric sites, ends assumed
Oligonucleotide	bound/input enrichment [ratio]
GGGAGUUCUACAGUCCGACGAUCGAUCCACAGUGGUCUGAGGAGCAACUCAUUGCUGCAAAAUUCUGUUUUGCUGGCCUUCUUAUAGGCCAGACUGAAGUGGACAUCAUGAGUCAUGCCACACAAGCUAUUUUUGAAAUUCUGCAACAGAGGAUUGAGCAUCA	0.172
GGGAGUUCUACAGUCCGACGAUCCUGUGACCACAAGAUCCUACCUGAGUGGCAGCUGAAGUUGACUCCCUCUCCUUGCCUGAACCCCCCCCUUUUGUUCCUUGAGUCCACAGUGUCGGCUGAGAUGUUGCCUCUGCACGGUUCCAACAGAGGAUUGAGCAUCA	1
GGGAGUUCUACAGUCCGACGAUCAGAAUCUUGGGACUGUUUUGCUUGAUUGGUCAUUGAUAGCUUAACAAACAUGGAGAUAAGAUUAGAAAUCUUGACAUCAACAGGUAUCAAGCAGAAAAAACCAUGGCCACGUGUCUCCUGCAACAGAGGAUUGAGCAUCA	0.126
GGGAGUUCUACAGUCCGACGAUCACUCAGAGAUCCACCUCCCAAAGUGCUGGGAGUAAAGGUGUGGCCACUCAAUUCUCCUUGAUGGAUAUAUAUUUUUUCUCUUUUAUGUCUUCCUGUUCGUCCAGGGAAGAAAGAUUUGUUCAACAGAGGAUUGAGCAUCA	0.573
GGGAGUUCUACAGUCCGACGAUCGACUUGGACCUUCCUGGGGCUAGUACAAAUAGCGGCAGUGGAGGCUCGAGAGGAAAGUUUGUUAGUGGAGGCAGUGGUAGAGGCCGUCAUGUACGGUCCUUUACUCGAUAGAUGUGUUCUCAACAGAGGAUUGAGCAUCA	0.187
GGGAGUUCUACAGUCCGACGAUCAUCCAGUACUCGAAUCACAAAGAACUAAAGACAGAUAAUACAUUAAACCAACGUGCUCAGGCAGUUCUUCAAGCUGUGACAGCGGUCCAGACAGCAAAUACACCUCUUAGUGGCACCACACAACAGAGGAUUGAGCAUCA	0.312

Sample 2 — technique: RNA Bind-n-Seq; form: RNA; medium: in vitro; tested at: 365 nM; baseline: no-protein control; direction: higher = stronger binding
Target: RNA binding protein fox-1 homolog 2, RRM domain, GST-SBP tag (RBFOX2, Homo sapiens, UniProt O43251-10, residues 100-194)
Notes: natural RNA segment, single round, ends assumed
Target sequence (chain): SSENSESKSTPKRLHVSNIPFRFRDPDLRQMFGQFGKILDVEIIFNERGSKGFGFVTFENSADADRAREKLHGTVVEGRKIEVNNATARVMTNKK
Oligonucleotide	RBNS enrichment (R)
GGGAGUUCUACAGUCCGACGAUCAUUUUUAUUUUGCAUACUGAGGGUAUUUGGGGUGGGGUUGUUUUUUGAGAUGUGUAAUUCUUUUAUGGAGUUUUUAAAAAGAAUUUUCAUAUUGUUUUUUCUAACAUGGCUGGAAUUCUCGGGUGCCAA	2.61
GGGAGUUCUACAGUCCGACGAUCUUUGAAGAUCUGUCCAUAUUCAGGAAUCUGAGAGUGUAAAAAAGGUACCAAUCAUUGAUUUUUUUUUUUUUUGUAAACUAAAAUGUUUAAAAUAAAAUAGCAUUUACAGUUGGAAUUCUCGGGUGCCAA	0.713
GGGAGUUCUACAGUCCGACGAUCAUGACCAGGAGACAGCCAGUUUCAAGGGCUGUCUGCCUAGCAGAGGCCAAGUGGUUUGAAGUUAUUUUUAACCACAGAAGAGUUAAUUUUAUACAAAUAAAUGUAAAUGUUGGAAUUCUCGGGUGCCAA	0.336
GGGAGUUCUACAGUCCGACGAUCGUAAAUAGAAAAAUGGUAGACCGCUGUCUAGUUUUCUCCGCAGGCAUUUUUGGGAGUGUAUCUAUAGCCUGUUCUACUUUGUUAAUGGGGGAUAACAGCACAUCCUAGAUUGGAAUUCUCGGGUGCCAA	0.49
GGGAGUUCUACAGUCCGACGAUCGGUUGGCUGGUGGGUCACCCAGCAGAGGCUUCUCCCCAUAGCACGAGGAUGUGUUGCCUGGGCACGGUGACUGCGGUUAUUCCUGGAGGUCGGCAGACAUGCCAACCUUGUGGAAUUCUCGGGUGCCAA	0.994

Sample 3 — technique: protein binding microarray; form: double-stranded DNA, one strand shown; medium: in vitro; tested at: not given; baseline: not given; direction: higher = stronger binding
Target: Histone acetyltransferase KAT6A, winged helix 2, GST fusion (KAT6A, Homo sapiens, UniProt Q92794, residues 85-181)
Notes: 8-mer, flanks averaged, mean of 2 arrays, mostly near background
Target sequence (chain): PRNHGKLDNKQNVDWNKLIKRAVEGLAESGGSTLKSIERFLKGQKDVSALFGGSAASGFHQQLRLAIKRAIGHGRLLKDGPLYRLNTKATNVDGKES
Oligonucleotide	E-score
CACGAATG	-0.0784
GATACAGC	-0.0333
AGGTTTGA	0.03
CACCTCCC	-0.102
CATTTACA	-0.0829

Mixed results
Molecule	target	test	test system	conditions	scale	quantity	value
PhoQ, residues 284 288 289 292 302 303 SCEHLI	PhoP, residues 12 14 15 18 19 LHHSG (Escherichia coli, UniProt P23836)	Sort-seq, refers to: YFP reporter	E. coli	PhoQ-PhoP variant library, added: 10 µM Mg2+	baseline: high Mg2+ state, higher = stronger signaling	fold induction	10.2

Repeated from above (sample 2):
Oligonucleotide	RBNS enrichment (R)
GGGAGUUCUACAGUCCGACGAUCUUUGAAGAUCUGUCCAUAUUCAGGAAUCUGAGAGUGUAAAAAAGGUACCAAUCAUUGAUUUUUUUUUUUUUUGUAAACUAAAAUGUUUAAAAUAAAAUAGCAUUUACAGUUGGAAUUCUCGGGUGCCAA	0.713
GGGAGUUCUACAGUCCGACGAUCAUGACCAGGAGACAGCCAGUUUCAAGGGCUGUCUGCCUAGCAGAGGCCAAGUGGUUUGAAGUUAUUUUUAACCACAGAAGAGUUAAUUUUAUACAAAUAAAUGUAAAUGUUGGAAUUCUCGGGUGCCAA	0.336
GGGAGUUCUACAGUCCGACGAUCGUAAAUAGAAAAAUGGUAGACCGCUGUCUAGUUUUCUCCGCAGGCAUUUUUGGGAGUGUAUCUAUAGCCUGUUCUACUUUGUUAAUGGGGGAUAACAGCACAUCCUAGAUUGGAAUUCUCGGGUGCCAA	0.49
